Assay results of several laboratories.
Protocols differ between the studies behind these lines. “And” joins repeats or separate records; there may be more than shown. Numbers after ± are the reported error.

CCN1[C@@H](C(=O)NC23CCC(C(=O)O)(CC2)CC3)[C@H](c2cccc(Cl)c2F)[C@]2(C(=O)Nc3cc(Cl)ccc32)C12CCCCC2
Leukopenia incidence (patients with advanced solid tumours; oral, 100 mg): 45.5%

N[C@@H]1c2ccccc2OC12CCN(c1cnc3c(N4CCCc5ncccc54)n[nH]c3n1)CC2
TEAE leading to withdrawal (advanced metastatic solid tumour patients; oral, 60 mg once daily): 0%

C[C@]1(CO)Cc2ncn(-c3ccc(C#N)c(Cl)c3)c2C(=O)O1
subjects with drug-related hyperhidrosis (human; 3 mg multiple doses, fasted): 0%

CC(C)C[C@H](NC(=O)[C@H](CCCCN)NC(=O)OCC1c2ccccc2-c2ccccc21)C(=O)N[C@H](C(=O)N[C@@H](Cc1ccccc1)C(=O)N[C@@H](Cc1ccccc1)C(=O)N[C@@H](CCCCN)C(=O)NCC(=O)N[C@@H](Cc1ccccc1)C(=O)N[C@@H](C)C(=O)N[C@@H](Cc1c[nH]c2ccccc12)C(=O)N[C@@H](CC(N)=O)C(=O)N[C@H](C(=O)N[C@H]1CSSC[C@@H](C(=O)N[C@@H](Cc2c[nH]cn2)C(=O)N[C@@H](CCCNC(=N)N)C(=O)N[C@@H](CCCNC(=N)N)C(=O)N[C@@H](C)C(=O)N[C@@H](CC(N)=O)C(N)=O)NC(=O)[C@H](C(C)C)NC(=O)[C@H](CCCNC(=N)N)NC(=O)[C@H](C(C)C)NC(=O)CNC(=O)[C@H](CC(N)=O)NC(=O)[C@H](CCCNC(=N)N)NC(=O)[C@H](Cc2ccc(O)cc2)NC(=O)[C@H](C(C)C)NC1=O)C(C)C)C(C)C
total protein (ICR mice, serum; intraductal mammary, 5 mg/kg, day 5): 52.1 ± 1.01 g/L

CCC[C@@](N)(CO)CCc1ccc(OCCCCCC(C)C)cc1
oral bioavailability (male hound dog; oral, 2.5 mg/kg, capsule, IV dose 1.0 mg/kg): 16%

C[C@@H](NC(=O)N1C(=O)[C@H](Cc2ccnc(N)c2)[C@H]1C(=O)O)C1CCCCC1
incidence of elevated creatine phosphokinase (healthy adult Chinese volunteers; continuous intravenous infusion, 2.25 mg/kg/h, 5-day infusion, CTCAE 5.0 grading): 0%

O=C(O)CNCP(=O)(O)O
dose fraction in permeate (ultrafiltration; cow milk whey; 20 nM nominal in whole milk): 56.6%

O=S(=O)(Nc1ccccc1)c1ccc(NC(=S)Nc2ccccc2)cc1
blood cell fraction (refers to: LY%; male mouse, blood; oral, 5 mg/kg daily, 14 days): 76.5%

COc1cccc(Oc2ccccc2NC(=O)CNC(=O)c2cccc3ccccc23)c1
albumin/globulin ratio (esterase-deficient SCID mice, male; oral, 15 mg/kg/day, 14 days, toxicity study): 1.3 and 1.4

CC(C)CC(=O)OC[C@H]1O[C@@](C#N)(c2ccc3c(N)ncnn23)[C@H](O)[C@@H]1O
recovery (plasma protein binding; rat plasma; 9 µM, time not given): 90.9%

CCc1ccc(CC/C=C/c2ccc3c(c2)C(=O)CC3)cc1
MCHC (Sprague-Dawley rat, female; oral, 30 mg/kg/day, 14 days): 329 g/L

COc1ccc2nc3cc(Cl)ccc3c(Nc3cc(CN4CCCC4)c(O)c(CN4CCCC4)c3)c2n1
aspartate aminotransferase (mouse, blood; oral, 57 mg/kg, tolerability, mean): 49.3 U/L

COc1ccc([C@@H](O)c2cc(-c3ncnc4cc(N5CCOCC5)ccc34)c(F)cc2Cl)nn1
metabolism, nutrition disorders incidence (patients, advanced solid tumours; oral, 300 mg twice daily, treatment-emergent, together with: avelumab): 4%

Cc1cccc(Cn2nc(C3CC3)c3c(NC(=O)c4cnc5cc(OCCN6CCN(C)CC6)ccn45)cccc32)n1
adverse events incidence (refers to: ALT increased; human advanced solid tumours; oral, 400 mg, all-causality): 28.6%

CN(C(=O)n1cnc(-c2ccc[n+]([O-])c2)c1)C1CCCCC1
concentration (Wistar rat, midbrain; oral, 10 mg/kg/day, 48 h, repeated 5 days): 13.2 ± 1.6 ng/g

O=C(O)C(O)(c1cccs1)c1cccs1
dose-normalised Cmax (human, CSF; 2 mg once daily, 5 days, median): 0.017 (ng/mL)/mg

COc1cc2c(Oc3ccc4[nH]c(C)cc4c3F)ccnc2cc1OCC1(N)CC1
hand-foot syndrome incidence (paediatric refractory sarcoma patients; 12 mg): 45.5%

CC(=O)c1c(C)c2cnc(Nc3ccc(C4CCN(CCS(C)(=O)=O)CC4)cn3)nc2n(C2CCCC2)c1=O
mean residence time (human patients, plasma; oral, 100 mg twice daily, day 1 single dose, together with: fulvestrant): 5.83 h

COc1ccc(-c2c(-c3ccc(C#N)c(F)c3)nc(N3CCC(N)CC3)n(C)c2=O)cc1F
serious adverse event incidence (refers to: tumor pain; human patients; oral, 60 mg, dose expansion): 0%

CC(C)(c1ccccc1)c1cc(-n2nc3ccccc3n2)c(O)c(C(C)(C)c2ccccc2)c1
daily dermal uptake, percentile (exposure assessment; human, age 3-6 years; concentration not given, spray sunscreen, 95th percentile): 74.2 ng/kg body weight/day

S=c1[nH]c(CCc2ccccc2)no1
fraction unbound (human plasma): 0.01

CC[C@H](C)[C@H](NC(=O)[C@H](Cc1ccccc1)NC(=O)[C@H](CCC(=O)O)NC(=O)[C@H](CCCNC(=N)N)NC(=O)[C@H](C)NC(=O)[C@H](C)NC(=O)[C@H](CCC(N)=O)NC(=O)[C@H](CCC(=O)O)NC(=O)[C@H](CCC(=O)O)NC(=O)[C@H](CC(C)C)NC(=O)[C@H](Cc1ccc(O)cc1)NC(=O)[C@H](CO)NC(=O)[C@H](CO)NC(=O)[C@@H](NC(=O)[C@H](CC(=O)O)NC(=O)[C@H](CO)NC(=O)[C@@H](NC(=O)[C@H](Cc1ccccc1)NC(=O)[C@@H](NC(=O)CNC(=O)[C@H](CCC(=O)O)NC(=O)[C@H](C)NC(=O)CCc1cnc[nH]1)[C@@H](C)O)[C@@H](C)O)C(C)C)C(=O)N[C@@H](C)C(=O)N[C@@H](Cc1c[nH]c2ccccc12)C(=O)N[C@@H](CC(C)C)C(=O)N[C@H](C(=O)N[C@@H](CCCNC(=N)N)C(=O)NCC(=O)N[C@@H](CCCNC(=N)N)C(=O)N[C@@H](CCCCNC(=O)COCCOCCNC(=O)COCCOCCNC(=O)CC[C@H](NC(=O)CCCCCCCCCCCCCCCCC(=O)O)C(=O)O)C(=O)NCC(=O)NCC(=O)N[C@@H](CO)C(=O)N[C@@H](CCSC)C(=O)N[C@H](C(=O)N[C@@H](CCCCNc1c(NCCCCCN(O)C(=O)CCC(=O)NCCCCCN(O)C(=O)CCC(=O)NCCCCCN(O)C(C)=O)c(=O)c1=O)C(=O)O)C(C)C)C(C)C [zirconium-89 labelled]
tissue uptake (ex vivo gamma counting; male Sprague-Dawley rats, spleen; intravenous, 1 nmol, 72 h, mean of 3 animals): 0.276 %ID/g

Nc1ncnc2c1ncn2[C@@H]1O[C@@H]2COP(=O)([S-])O[C@@H]3[C@H](O)[C@@H](COP([O-])(=S)O[C@H]2[C@H]1O)O[C@H]3n1cnc2c(N)ncnc21.[Na+].[Na+] (stereo partly shown)
total protein (non-tumor-bearing mice, serum; intravenous, 1 mg/kg, toxicity study): 53.1 ± 3.11 g/L

COc1ccnc(C(=O)N[C@H]2COC(=O)[C@H](Cc3ccccc3)[C@@H](OC(=O)C(C)C)[C@H](C)OC2=O)c1OCOC(=O)C(C)C
Freundlich coefficient KF (soil adsorption; soil; pH 6.9, organic carbon 0.8 %): 470 mL/g

N#Cc1ccc(COc2cccc(C(=O)Nc3ccc4c(c3)B(O)OC4)c2)cc1
acceptor concentration (PAMPA; pre-coated trilayer membrane; 200 µM, 5 h, pH 7.4, acceptor plate, PBS): 0.35 ± 0.06 µM

CC(C)NCCCC[C@@H]1NC(=O)[C@H](Cc2ccc(O)cc2)NC(=O)[C@H](Cc2ccccc2)NC(=O)CC[C@H](C(=O)N[C@@H](CCCCNC(C)C)C(=O)N[C@@H](CCCCNC(=O)[C@H](CCC(=O)O)NC(=O)[C@H](CCC(=O)O)NC(=O)[C@H](CCC(=O)O)NC(=O)CN2CCN(CC(=O)O)CCN(CC(=O)O)CC2)C(N)=O)NC(=O)CNC(=O)[C@H](Cc2ccc3ccccc3c2)NC(=O)[C@@H](CCCNC(=N)N)NC1=O [fluorine-18 labelled]
intact parent fraction (mouse, urine; 75 min, post injection): 95.4 ± 1.47%

O=C(O)CCC(CP(=O)(O)O)C(=O)O (stereo not shown)
measured concentration (rat plasma; 8 µg/mL, 4 h, room temperature, bench-top stability): 8.84 ± 0.18 µg/mL

Cn1cc(-c2nc(N[C@@H]3CCCC[C@@H]3N)c(F)c3c2C(=O)NC3)cn1
hemorrhagic adverse events (refers to: Retinal haemorrhage; patients with relapsed or refractory AML; oral, 80 mg twice daily): 33%

O=C(Nc1ccccc1)C1CCN(C(=O)Oc2cccnc2)CC1
change in calmness score (Bond-Lader VAS; healthy women; 60 mg; relative to: pre-dose baseline, direction not given): 14

C[C@H]1CN(C(=O)CC#N)[C@]12CCN(c1ncnc3[nH]ccc13)C2
NOAEL (minipig, male and female; dermal, 9 months, highest dose given): 20 mg/kg

CCCCCc1cc(O)c(C/C=C(\C)CCC=C(C)C)c(O)c1
plasma concentration (LC-MS/MS; Scn1a+/− mice, both sexes, plasma; intraperitoneal, 10 mg/kg, after hyperthermia protocol): 92 ± 11 ng/mL

O=C1Nc2cc3[nH]nc(-c4ccncc4)c3cc2CN1Cc1ccccc1
patients with dyspnoea (CTCAE v4.03; advanced solid tumour patients; intravenous, 3.6 mg/kg, schedules 1/2): 33%

CC(C)=CC1C(C(=O)OC(C#N)c2cccc(Oc3ccccc3)c2)C1(C)C (stereo not shown)
enzyme contribution to clearance (refers to: CYP2C19; human, age 1 year): 0.77%

CO[C@H]1C[C@@H]2CC[C@@H](C)[C@@](O)(O2)C(=O)C(=O)N2CCCC[C@H]2C(=O)O[C@H]([C@H](C)C[C@@H]2CC[C@@H](OC(=O)NCCOCCOCCOCCOCCOCCOCCOCCOCCC(=O)N3CCc4cc(Cn5nc(-c6ccc7oc(N)nc7c6)c6c(N)ncnc65)ccc4C3)[C@H](OC)C2)C[C@@H](O)[C@H](C)/C=C(\C)[C@@H](O)[C@@H](OC)C(=O)[C@H](C)C[C@H](C)/C=C/C=C/C=C/1C
deaths due to TEAEs (phase 1 dose escalation; advanced solid tumour patients; intravenous, 16 mg weekly, grade ≥3): 0%
